Measurements collected from several papers.
Several values in a cell are separate wells, animals, samples, runs or records.
kasA: 3-oxoacyl-[acyl-carrier-protein] synthase 1 (kasA, Mycobacterium tuberculosis, UniProt P9WQD9)

[H]/N=C(/N)N[C@H]1[C@H](O)[C@@H](O)[C@H](O[C@@H]2O[C@@H](C)[C@](O)(C=O)[C@H]2O[C@@H]2O[C@@H](CO)[C@H](O)[C@@H](O)[C@@H]2NC)[C@@H](N/C(N)=N\[H])[C@@H]1O — ΔTm (kasA; thermal stabilization, nanoDSF; 100 µM): -0.01 °C
O=C(Nc1cccnn1)N1CCC(=Cc2cccc(Oc3ccc(C(F)(F)F)cn3)c2)CC1 — inhibition (PTGER3 (Homo sapiens, UniProt P43115); radioligand binding, inhibitor; 10 µM, human, together with: [3H]prostaglandin E2): 24%
CC(NC(C)(C)C)C(=O)c1cccc(Cl)c1 (stereo not shown) — inhibition (Voltage-dependent P/Q-type calcium channel subunit alpha-1A (Homo sapiens, UniProt O00555); ion current, antagonist; HEK293; 30 µM): 57%
CC[C@H](C)[C@H](NC(=O)CNC(=O)[C@@H](N)CCCCN)C(=O)N[C@@H](CC(C)C)C(=O)N[C@@H](CCCCN)C(=O)N[C@@H](CCCNC(=N)N)C(=O)N[C@@H](CCC(=O)O)C(=O)N[C@@H](CCCCN)C(=O)N[C@@H](CCCNC(=N)N)C(=O)N[C@@H](CC(C)C)C(=O)N[C@@H](CCCNC(=N)N)C(=O)N[C@@H](CCCNC(=N)N)C(=O)N[C@@H](CCCCN)C(=O)N[C@@H](CC(N)=O)C(=O)N[C@H](C(=O)N[C@@H](Cc1c[nH]cn1)C(=O)N[C@@H](Cc1c[nH]c2ccccc12)C(=O)N1CCC[C@H]1C(=O)N[C@@H](CCC(=O)O)C(=O)N[C@@H](CCC(=O)O)C(=O)NCC(=O)N[C@@H](CCCCN)C(=O)N[C@@H](CC(C)C)C(=O)N[C@@H](CCCNC(=N)N)C(=O)N[C@@H](CCC(=O)O)C(=O)N[C@@H](Cc1ccc(O)cc1)C(=O)N[C@@H](Cc1ccccc1)C(=O)N[C@@H](Cc1ccc(O)cc1)C(=O)N[C@@H](Cc1ccccc1)C(=O)N[C@@H](CCC(=O)O)C(=O)N[C@@H](CC(C)C)C(=O)N[C@@H](CC(=O)O)C(=O)N[C@@H](CCC(=O)O)C(=O)N[C@@H](C)C(=O)N[C@@H](CCC(=O)O)C(=O)N[C@@H](CCCNC(=N)N)C(=O)N[C@H](C(=O)N[C@@H](CC(N)=O)C(=O)N[C@H](C(=O)O)C(C)C)C(C)C)C(C)C — log2 fold change (HeLa and HEK-293T cells; phosphatase bead binding, competitive inhibitor, PIB pulldown iBAQ LC-MS/MS, item: PPP6C; concentration not given; reference: untreated control): -0.11
C[C@H]1CN(c2n[nH]c3nc(N[C@H]4CC[C@H](NS(=O)(=O)CCC(F)(F)F)CC4)ncc23)CCO1 — relative abundance (Prohibitin-2 (PHB2, Homo sapiens, UniProt Q99623); inhibitor, Kinobeads competition profiling; 0.8 µM; reference: vehicle): 1.11
c1ccc2cc([C@]34CNC[C@H]3C4)ccc2c1 — dopamine uptake (SLC6A3 (Homo sapiens, UniProt Q01959, V152A); inhibitor, [3H]dopamine uptake; 100 µM, V152A mutant; reference: no inhibitor): 0.296% and -0.00638% and 0.535%
O=C(Nc1cnccc1Cl)N1CCN(Cc2ccc3c(c2)OC(F)(F)O3)CC1 — inhibition of binding (ESR2 (Homo sapiens, UniProt Q92731); radioligand binding; 10 µM, together with: [3H]estradiol): -2%
[2H]c1c([2H])c([C@]2([2H])CCCN2C(=O)C(C)(C)Oc2ccc3cn[nH]c3c2)c([2H])c([2H])c1C([2H])([2H])[2H] — remaining binding (CHEK1 (Homo sapiens, UniProt O14757); KINOMEscan; 1 µM; reference: DMSO control): 84%
O=C(c1ccc(Cl)cc1)N1CCN2C(=O)N(OC(=O)N3CCOc4ccccc43)C(=O)C2C1 (stereo not shown) — peptide ratio (Protein phosphatase methylesterase 1 (Homo sapiens, UniProt Q9Y570); MS-based ABPP; SW-620 conditioned medium; 10 µM, 1 h, 37 °C; reference: compound over DMSO, lower = more inhibition): 1
CCN(CC)CCNC(=O)c1ccc(NC(C)=O)cc1 — ΔTm (kasA; thermal stabilization, nanoDSF; 100 µM): -0.07 °C
CN1CCN(c2cc(-c3ccncc3)c(-c3ccc4ccccc4c3)nn2)CC1 — activation (LTB4R (Homo sapiens, UniProt Q15722); agonist, FLIPR; 12.5 µM): -1.5%
COc1ccc(N2C(=O)N(c3c(C)cccc3Cl)Cc3cnc(Nc4ccc(C5CCN(C)CC5)cc4OC)nc32)nc1 — inhibition (CHUK (Homo sapiens, UniProt O15111); kinase activity, inhibitor; 0.5 µM, kinase IKK-ALPHA): -1.62%
Oc1ccc2c3c1O[C@H]1[C@@H](O)CC[C@@]4(O)[C@@H](C2)N(CC2CCC2)CC[C@]314 — log2 fold change (LPAR4 (Homo sapiens, UniProt Q99677); β-arrestin recruitment, TANGO luminescence, item: GPR23; concentration not given; reference: basal luminescence): 0.274

A few entries again:
[H]/N=C(/N)N[C@H]1[C@H](O)[C@@H](O)[C@H](O[C@@H]2O[C@@H](C)[C@](O)(C=O)[C@H]2O[C@@H]2O[C@@H](CO)[C@H](O)[C@@H](O)[C@@H]2NC)[C@@H](N/C(N)=N\[H])[C@@H]1O — ΔTm (kasA; thermal stabilization, nanoDSF; 100 µM): -0.01 °C
CN1CCN(c2cc(-c3ccncc3)c(-c3ccc4ccccc4c3)nn2)CC1 — activation (LTB4R (Homo sapiens, UniProt Q15722); agonist, FLIPR; 12.5 µM): -1.5%
